# Experimental data of several laboratories.
# Each numbered part is a random draw from the data of one study; scales do not carry over between parts.
# UniProt Q86UE8, sequence (whole entry, looked up): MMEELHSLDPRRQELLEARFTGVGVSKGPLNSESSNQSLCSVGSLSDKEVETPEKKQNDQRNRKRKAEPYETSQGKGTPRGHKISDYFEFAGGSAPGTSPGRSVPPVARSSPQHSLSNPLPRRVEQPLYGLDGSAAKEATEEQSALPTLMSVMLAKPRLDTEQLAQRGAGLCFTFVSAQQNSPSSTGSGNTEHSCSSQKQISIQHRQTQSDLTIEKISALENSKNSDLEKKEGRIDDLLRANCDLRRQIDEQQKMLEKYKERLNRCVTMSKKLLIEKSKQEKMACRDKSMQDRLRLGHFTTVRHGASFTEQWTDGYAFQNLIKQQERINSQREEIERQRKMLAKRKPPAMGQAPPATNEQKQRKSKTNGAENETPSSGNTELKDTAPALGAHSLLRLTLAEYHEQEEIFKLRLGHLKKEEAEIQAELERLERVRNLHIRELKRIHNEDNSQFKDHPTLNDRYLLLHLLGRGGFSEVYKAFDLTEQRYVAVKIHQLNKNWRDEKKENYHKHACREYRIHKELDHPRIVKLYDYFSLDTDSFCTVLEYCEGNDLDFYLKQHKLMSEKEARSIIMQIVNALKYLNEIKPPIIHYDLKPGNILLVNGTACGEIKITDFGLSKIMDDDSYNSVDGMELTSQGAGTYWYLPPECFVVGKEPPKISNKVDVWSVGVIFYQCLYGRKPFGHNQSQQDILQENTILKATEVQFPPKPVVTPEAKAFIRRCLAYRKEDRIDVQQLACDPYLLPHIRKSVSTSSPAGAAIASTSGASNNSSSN
# UniProt P22607, sequence (whole entry, looked up): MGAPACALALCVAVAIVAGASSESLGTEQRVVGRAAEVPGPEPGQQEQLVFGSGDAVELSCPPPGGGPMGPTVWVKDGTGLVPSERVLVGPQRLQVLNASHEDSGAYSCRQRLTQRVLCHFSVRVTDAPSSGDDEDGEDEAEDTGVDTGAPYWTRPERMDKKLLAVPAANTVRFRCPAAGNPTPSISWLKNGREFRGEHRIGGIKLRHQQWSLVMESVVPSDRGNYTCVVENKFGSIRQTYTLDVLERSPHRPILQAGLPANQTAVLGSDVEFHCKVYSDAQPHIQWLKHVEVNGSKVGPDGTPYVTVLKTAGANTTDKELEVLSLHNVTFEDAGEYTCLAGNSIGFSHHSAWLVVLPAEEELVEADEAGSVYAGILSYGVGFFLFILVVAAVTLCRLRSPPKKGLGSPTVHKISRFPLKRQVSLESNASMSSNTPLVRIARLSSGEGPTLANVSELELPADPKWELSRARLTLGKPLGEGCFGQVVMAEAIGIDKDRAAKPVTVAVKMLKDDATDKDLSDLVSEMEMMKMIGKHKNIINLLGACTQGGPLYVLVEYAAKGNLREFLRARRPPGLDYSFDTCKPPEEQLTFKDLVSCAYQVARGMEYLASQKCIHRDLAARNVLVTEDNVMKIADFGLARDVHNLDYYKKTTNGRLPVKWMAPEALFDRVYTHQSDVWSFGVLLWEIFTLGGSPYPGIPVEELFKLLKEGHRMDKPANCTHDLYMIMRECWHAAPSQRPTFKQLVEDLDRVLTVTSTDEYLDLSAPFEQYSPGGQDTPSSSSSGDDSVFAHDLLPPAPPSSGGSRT
# UniProt P78368, sequence (whole entry, looked up): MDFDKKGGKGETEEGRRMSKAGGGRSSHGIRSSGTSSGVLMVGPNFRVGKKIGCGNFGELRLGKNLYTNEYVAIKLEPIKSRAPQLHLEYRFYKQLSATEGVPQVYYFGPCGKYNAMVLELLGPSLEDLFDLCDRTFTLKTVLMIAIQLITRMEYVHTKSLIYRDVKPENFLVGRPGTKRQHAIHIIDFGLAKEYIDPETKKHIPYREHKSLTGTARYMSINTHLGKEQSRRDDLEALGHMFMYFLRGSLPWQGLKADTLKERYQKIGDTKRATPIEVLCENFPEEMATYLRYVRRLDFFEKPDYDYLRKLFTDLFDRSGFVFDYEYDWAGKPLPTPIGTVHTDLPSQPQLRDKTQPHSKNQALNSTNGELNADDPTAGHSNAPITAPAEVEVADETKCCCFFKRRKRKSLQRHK
# UniProt P52333, sequence (whole entry, looked up): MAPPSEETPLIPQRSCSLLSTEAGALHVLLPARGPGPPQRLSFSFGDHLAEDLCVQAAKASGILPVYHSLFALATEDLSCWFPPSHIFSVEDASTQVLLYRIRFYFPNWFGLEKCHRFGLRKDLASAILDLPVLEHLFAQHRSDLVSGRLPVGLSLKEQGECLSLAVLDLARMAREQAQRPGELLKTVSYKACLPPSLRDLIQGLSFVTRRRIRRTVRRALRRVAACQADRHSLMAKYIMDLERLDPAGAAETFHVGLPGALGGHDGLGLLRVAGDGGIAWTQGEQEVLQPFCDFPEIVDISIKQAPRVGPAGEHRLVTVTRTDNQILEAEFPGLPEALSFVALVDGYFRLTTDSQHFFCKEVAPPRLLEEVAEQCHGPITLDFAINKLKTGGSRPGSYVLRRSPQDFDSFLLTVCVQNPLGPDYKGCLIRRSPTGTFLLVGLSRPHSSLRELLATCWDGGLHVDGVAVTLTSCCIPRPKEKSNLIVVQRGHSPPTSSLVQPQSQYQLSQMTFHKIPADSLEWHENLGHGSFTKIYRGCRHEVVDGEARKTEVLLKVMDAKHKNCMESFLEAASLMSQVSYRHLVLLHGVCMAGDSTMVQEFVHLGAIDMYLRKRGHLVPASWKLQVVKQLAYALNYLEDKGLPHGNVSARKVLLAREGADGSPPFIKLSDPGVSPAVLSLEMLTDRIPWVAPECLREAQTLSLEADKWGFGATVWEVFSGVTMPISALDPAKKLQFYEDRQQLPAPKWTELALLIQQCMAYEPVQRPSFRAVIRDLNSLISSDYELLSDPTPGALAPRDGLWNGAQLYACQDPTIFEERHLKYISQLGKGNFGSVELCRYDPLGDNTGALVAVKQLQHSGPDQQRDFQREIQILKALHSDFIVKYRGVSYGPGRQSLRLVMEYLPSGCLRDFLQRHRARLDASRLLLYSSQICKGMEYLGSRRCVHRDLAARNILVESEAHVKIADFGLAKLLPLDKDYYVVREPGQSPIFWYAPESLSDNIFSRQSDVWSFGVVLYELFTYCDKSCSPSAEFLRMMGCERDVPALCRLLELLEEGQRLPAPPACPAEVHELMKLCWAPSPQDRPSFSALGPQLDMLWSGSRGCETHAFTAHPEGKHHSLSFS
# UniProt Q15349, sequence (whole entry, looked up): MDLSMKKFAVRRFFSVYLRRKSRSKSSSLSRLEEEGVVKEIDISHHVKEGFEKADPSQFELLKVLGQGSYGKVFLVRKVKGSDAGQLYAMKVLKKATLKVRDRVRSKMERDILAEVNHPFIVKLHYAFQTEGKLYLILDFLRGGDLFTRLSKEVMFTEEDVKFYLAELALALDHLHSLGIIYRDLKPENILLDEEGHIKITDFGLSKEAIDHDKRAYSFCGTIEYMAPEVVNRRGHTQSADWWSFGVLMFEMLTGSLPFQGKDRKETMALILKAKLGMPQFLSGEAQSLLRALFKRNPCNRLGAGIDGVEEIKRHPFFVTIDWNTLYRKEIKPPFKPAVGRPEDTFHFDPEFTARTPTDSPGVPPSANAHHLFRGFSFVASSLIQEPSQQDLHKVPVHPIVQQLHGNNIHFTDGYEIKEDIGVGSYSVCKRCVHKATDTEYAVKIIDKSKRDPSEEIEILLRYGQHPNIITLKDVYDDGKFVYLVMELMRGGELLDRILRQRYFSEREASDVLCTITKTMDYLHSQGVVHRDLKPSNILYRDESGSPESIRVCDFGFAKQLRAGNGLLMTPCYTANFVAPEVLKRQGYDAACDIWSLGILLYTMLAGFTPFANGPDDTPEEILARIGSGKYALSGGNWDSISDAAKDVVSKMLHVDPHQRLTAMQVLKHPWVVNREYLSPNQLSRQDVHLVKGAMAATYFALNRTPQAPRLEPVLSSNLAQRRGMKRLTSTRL
# UniProt O14920, sequence (whole entry, looked up): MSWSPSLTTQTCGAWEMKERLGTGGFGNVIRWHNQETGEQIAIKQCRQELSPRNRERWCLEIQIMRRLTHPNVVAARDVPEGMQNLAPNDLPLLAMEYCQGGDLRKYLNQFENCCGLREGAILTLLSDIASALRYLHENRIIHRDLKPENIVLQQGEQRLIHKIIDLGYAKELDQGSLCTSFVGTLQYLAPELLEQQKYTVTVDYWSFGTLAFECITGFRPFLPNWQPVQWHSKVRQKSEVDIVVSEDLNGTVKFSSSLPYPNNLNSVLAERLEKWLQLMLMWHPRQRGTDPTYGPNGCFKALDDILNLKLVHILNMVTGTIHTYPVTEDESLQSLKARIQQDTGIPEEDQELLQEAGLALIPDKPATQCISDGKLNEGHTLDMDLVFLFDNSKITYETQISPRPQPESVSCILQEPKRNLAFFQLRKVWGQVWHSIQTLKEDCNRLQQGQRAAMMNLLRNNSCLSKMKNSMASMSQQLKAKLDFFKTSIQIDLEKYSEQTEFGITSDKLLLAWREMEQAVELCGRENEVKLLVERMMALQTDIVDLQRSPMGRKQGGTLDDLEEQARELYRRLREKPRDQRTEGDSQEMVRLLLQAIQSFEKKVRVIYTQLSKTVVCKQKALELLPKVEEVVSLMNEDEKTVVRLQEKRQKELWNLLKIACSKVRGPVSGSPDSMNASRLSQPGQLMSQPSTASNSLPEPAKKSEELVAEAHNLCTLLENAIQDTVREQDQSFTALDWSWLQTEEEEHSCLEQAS

# Series 1
# Target: Interferon regulatory factor 5, full length, phosphomimetic (IRF5, Homo sapiens, UniProt Q13568-2, residues 1-514, S451D/S453D/S456D/S462D)
# Technique: protein-binding microarray
# Molecule type: double-stranded DNA, one strand shown
# Sample: in vitro
# Tested at: 940 nM top
# Setting: 60-bp whole probe
# Together with: salmon DNA 0.4 mg/ml
# Reference: random background probes
# Direction: higher = stronger binding
# Shared flanks, not repeated: GCCTAGCAC … GTCTTGATTCGCTTGACGCTGCTG
Oligonucleotide,fitted relative affinity [z-score]
TTAGGACTGAGGTTTCGGTTAGTGCTA,5.15
TTAGATTTCAGGTTTCGATTAGTGCTA,5.84
TTGGGTATCCTACTGCTTTAGTGCTAG,0.012
TAGAATGTCCTTTCTCCATGGGTGCTA,0.175
GACGGTCTCGGTCTAGGGACGTGCTAG,4.07
TTAGGTATCCTTCTCCTGTAGTGCTAG,0.871
TACGGACTGGACACTGGGGACGTGCTA,-0.593
GACGCACTGAGTTTCGAGACGTGCTAG,3.27

# Series 2
# Compound: Cc1cc(NC(=O)c2cccc(S(F)(F)(F)(F)F)c2)cc(-n2ccn3nc(-c4cccnc4)cc23)c1
# Effect on: cell-free assay
# Technique: competition with immobilised ligand
# Tested at: 1 µM
target,remaining binding
"FLT3 (Homo sapiens, UniProt P36888, F691L/ITD)",100%
"FGFR3 (Homo sapiens, UniProt P22607)",90.7%
"WNK1 (Homo sapiens, UniProt Q9H4A3)",100%
"TLK2 (Homo sapiens, UniProt Q86UE8)",94.3%
"PIK3CA (Homo sapiens, UniProt P42336, I800L)",96%
"PLK4 (Homo sapiens, UniProt O00444)",96.9%
"IKBKB (Homo sapiens, UniProt O14920)",65.5%
"RIOK1 (Homo sapiens, UniProt Q9BRS2)",100%

# Series 3
# Compound: Cc1nc(Nc2ncc(C(=O)Nc3c(C)cccc3Cl)s2)cc(N2CCN(CCO)CC2)n1
# Effect on: enzyme activity
# Action: inhibitor
# Tested at: 0.5 µM
# Reference: control
target,remaining activity [%]
"CSNK1G2 (Homo sapiens, UniProt P78368)",97.2
"RPS6KA2 (Homo sapiens, UniProt Q15349)",93.9
"JAK3 (Homo sapiens, UniProt P52333)",93.4

# Series 4
# Target: RING finger protein unkempt homolog, zinc fingers 1-6, SBP tag (UNK, Homo sapiens, UniProt Q9C0B0, residues 30-357)
# UniProt Q9C0B0, sequence (30-357, looked up): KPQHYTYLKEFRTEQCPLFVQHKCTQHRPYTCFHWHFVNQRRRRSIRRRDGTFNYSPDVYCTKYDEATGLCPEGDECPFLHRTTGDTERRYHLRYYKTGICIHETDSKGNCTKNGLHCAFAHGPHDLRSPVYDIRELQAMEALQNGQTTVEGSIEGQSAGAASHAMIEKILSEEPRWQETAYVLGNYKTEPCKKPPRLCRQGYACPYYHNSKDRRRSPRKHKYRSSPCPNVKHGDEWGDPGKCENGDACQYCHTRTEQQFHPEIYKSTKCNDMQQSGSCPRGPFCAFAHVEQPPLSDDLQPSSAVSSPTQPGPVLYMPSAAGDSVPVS
# Technique: RNA Bind-n-Seq
# Molecule type: RNA
# Sample: in vitro
# Tested at: 100 nM
# Setting: RNA with constant flanks, vertebrate orthologous sites, ends assumed
# Reference: input RNA pool
# Direction: higher = stronger binding
# Shared flanks, not repeated: GGGAGUUCUACAGUCCGACGAUC … CAACAGAGGAUUGAGCAUCA
Oligonucleotide,bound/input enrichment
GUUAAUGAUCAUAUCAUAUGUAGAGAAAAAAUUUUCAUUGUCCCCAUUGUGAAAUUUAUUUAGAAUCUUCAUUUUUCUCAUUCAGGCUCACUGUAUUAGUUAUUUUUAGUCCAUAAUUAA,2.29 ratio
UUGAUGAUUUUCAAUCUCUUUUCCCUUACCCUGAUUUUAAAAGCCUUUUUUUUUUUUUAGGCAUAUAUAGUAAUAUUAGCAGAAAGAUUUAAUUUGGGCAACUUUGAUUCUUAAAAGAGA,0.291 ratio
GUGGGGAUGAGGGUGGGAUGGGAAAGGGAUGUAUGGAUGUUAUUGGCAUUUUUAAGUGUUUAGAGUUUUUUGGGGUUUGGGGUGGUUUUUUUUCCUUGUUUUCCUUUUUUCCUUUUAAUU,2.2 ratio
CUCUACGGGCCUCGCAGAGUGGAAAUAAUGGAAGAGGAAAGUGAACAGUAAUCUUCAUUUUAGUAUUUAUGCUUAGGUGUGAAAUAAAUGUUAUUUGUUGAUCAUUUCUAUAACCCAGAG,0.573 ratio
UCCUCAACUUGUUCUAGCUUGUGAUCCCUCAAAGUUGGGUCAUAUGUUAGUGCUAGAUACUAGAAAUUUUCACUUUUCCACUGAUCAGAGAGACAGACAUUAAAAACAAAAAUAGAAGAA,3.02 ratio
UUGUUUUUGUUUUGCACAUGACAGUGUGUGUAUUGAUCUGAGAAAGGAGGAGGGGUGCUGGCGCAGUUGGCCUCCAGUGCCCCCCACCCUCAACACCCCACCUGGUAUCUUUGCCACGUU,0.229 ratio
CAGUAGAAUUACACUAAUACUGAAGUUAAAAGAAUAUCCAAGGUGAUGAUAAAGUGUGUGUUGGUAGUUGCUAAAAGAACCUUAGCUGUUAUUGCCUUGUAUUUCUAUUCCUUGUUUCAG,0.545 ratio
AAAUUCCCCCAUUGUCACUGAGAACCACCAAAUCUGACUUUUACAUUUGGUCUCAGAAUUUAGGUUCCUGCCCUGUUGGUUUUUUUUUUUUUUUUUUAAACCGUUUUCAAAAGUUCUUAA,0.972 ratio
